Results pooled from the literature.
Numbered parts are unrelated; each lists some results of a single study. Substitutions count along the parent as printed.

Set 1 — technique: universal PBM; molecule type: double-stranded DNA, one strand shown; medium: in vitro; tested at: not given; direction: higher = stronger binding
Target: Sal-like protein 4, full length isoform B (SALL4, Homo sapiens, UniProt Q9UJQ4-2, residues 1-616)
Notes: 8-mer, flanks averaged, mean of replicates
Strand | E-score
CCACCTGG | -0.285
ATAAGCGA | 0.202
CGACGCTC | -0.0632
TAATTTCA | 0.366
GGCTAAAA | 0.0412
AACCCTGG | -0.124
TACCATAA | 0.323
TCAAGACA | 0.0559
TCACCGGA | -0.158
AGGGCCGC | -0.368
ACCGCCCG | -0.264
AGAAAACG | 0.0229
ACGCTAGT | 0.00133
AAATCATC | 0.155
GCAACTCC | -0.183
AGAACTTA | 0.0704

Set 2 — technique: RNA Bind-n-Seq; molecule type: RNA; medium: in vitro; tested at: 200 nM; notes: whole 134-nt RNA, ends assumed; added: 150 mM LiCl; relative to: input library; direction: higher = stronger binding; each molecule: 7-deaza-guanosine replaces G
Target: Ras GTPase-activating protein-binding protein 1, full length (G3BP1, Homo sapiens, UniProt Q13283)
UniProt Q13283, sequence (whole entry, looked up): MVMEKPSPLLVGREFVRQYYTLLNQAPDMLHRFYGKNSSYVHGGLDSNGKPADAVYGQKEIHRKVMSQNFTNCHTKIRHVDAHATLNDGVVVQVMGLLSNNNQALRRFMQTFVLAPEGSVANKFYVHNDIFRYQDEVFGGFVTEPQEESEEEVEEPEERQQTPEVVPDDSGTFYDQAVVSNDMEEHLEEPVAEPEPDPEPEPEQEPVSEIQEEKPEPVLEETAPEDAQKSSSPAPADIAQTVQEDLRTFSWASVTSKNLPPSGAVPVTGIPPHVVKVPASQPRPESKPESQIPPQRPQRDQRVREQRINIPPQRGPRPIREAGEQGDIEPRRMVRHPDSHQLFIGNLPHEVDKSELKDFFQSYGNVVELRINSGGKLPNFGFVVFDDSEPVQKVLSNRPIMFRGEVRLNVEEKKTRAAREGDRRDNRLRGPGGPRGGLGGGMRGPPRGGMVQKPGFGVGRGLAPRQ
Constant ends, left off below: GGGAGUUCUACAGUCCGACGAUC … UGGAAUUCUCGGGUGUCAAGG
Strand | log2 enrichment
AAGUCCUGUGCUACACAUCGUAUGUACCGAAUCGGGGAAAGGGGAAAGGGGAAAGGAAAGUAUUAUGUUACGCCGUUCGGAUCUGCACUU | 0.219
AAGUCCUGUGCUACACAUCGUAUGUACCGAAUCGGUUUUGGGGUUUUGGGGUUUUGGAAAGUAUUAUGUUACGCCGUUCGGAUCUGCACU | -0.0101
CAAGUCCUGUGCUACACAUCGUAUGUACCGAAUCGGAAAAAGGUUUGGUUUUUGGAAAGUAUUAUGUUACGCCGUUCGGAUCUGCACUUC | -1.51
UCAAGUCCUGUGCUACACAUCGUAUGUACCGAAUCGGGGCCCGGCCCGGCCCGGGAAAGUAUUAUGUUACGCCGUUCGGAUCUGCACUUC | -0.483
CACAGACAACACGCACCCACACAGACACAGAGGGAAGGGGUUGGUAUGGGGACAGGGUGCACAGCAGGGCGGGGUAGGACCCCAGCCCCU | -1.55
ACCAUGCAGGUGGGCAUCUUUGGGAAGUGGGGCAAGGGGGGGAUAGGGCGGGGGGUAACACUUUGGGAACAGGUGGUCCCAGGUCGUUUC | 0.206
UGGCAUGGAUCCAGUGGGCUGAGACCACCCUCAUUCAGCGGGAUCAGGAGCCAAUCCCGCAGAACAUUGACCGAGUUAAAGCCCUUAUCG | -1.82
UAACUUUAGAGGAGGAUCUGAUGGAUAUGGCAGUGGACGUGGAUUUGGGGAUGGCUAUAAUGGGUAUGGAGGAGGACCUGGAGGCGGCAA | 0.0574

Set 3 — technique: protein binding microarray; molecule type: double-stranded DNA, one strand shown; medium: in vitro; tested at: not given; relative to: not given; direction: higher = stronger binding
Target: Histone acetyltransferase KAT6A, both winged helices, GST fusion (KAT6A, Homo sapiens, UniProt Q92794, residues 1-181)
Notes: 8-mer, flanks averaged, mean of 2 arrays, mostly near background
Target sequence (chain): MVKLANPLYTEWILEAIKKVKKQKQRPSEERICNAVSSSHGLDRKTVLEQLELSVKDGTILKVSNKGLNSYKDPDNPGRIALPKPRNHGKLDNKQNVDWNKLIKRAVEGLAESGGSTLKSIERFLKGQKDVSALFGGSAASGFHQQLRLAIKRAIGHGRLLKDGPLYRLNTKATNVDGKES
Strand | E-score
ATCGACAT | 0.0264
CCAGAAGA | -0.28
ACGTCTTA | -0.0838
CCCTGGGC | -0.102
ATAAGGCA | -0.263
ACCGCGTC | 0.338
ACGCAGTA | 0.00496
GGGGAGAA | -0.144
CCCCATCA | -0.252
ATTACCCA | -0.236
GCTGACAC | 0.0189
CGGCGGGC | 0.353
AAAGTGCA | -0.0402
GCCTAACC | -0.113
TGAAAGCA | -0.191
CCCGGCAA | 0.202
CCATTTCG | -0.161
GCCGTACA | 0.228
AAGGTGGC | -0.207
CGCACGGA | 0.311

Set 4 — target: CCNB3, cyclin fold, Cln2 fusion (human); technique: yeast growth competition, sequencing; medium: yeast; notes: weak parent motif; relative to: not given; direction: higher = stronger binding
Parent: MASTL docking peptide (human); PMIAKNLMCELDE; partner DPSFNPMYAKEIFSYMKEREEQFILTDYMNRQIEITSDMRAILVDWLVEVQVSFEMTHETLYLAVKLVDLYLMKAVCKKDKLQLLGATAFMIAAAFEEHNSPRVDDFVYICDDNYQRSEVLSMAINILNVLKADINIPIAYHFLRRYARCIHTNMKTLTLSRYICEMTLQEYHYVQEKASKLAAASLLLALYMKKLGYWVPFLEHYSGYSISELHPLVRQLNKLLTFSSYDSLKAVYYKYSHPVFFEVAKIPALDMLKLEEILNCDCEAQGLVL
Change | normalised enrichment score
L7E | 0.28
E10K | 0.14
C9S | -0.241
M2L | 0.00634
C9F | 0.0332
M8L | 0.205
E10G | -0.0167
A4S | -0.208
L11Y | -0.238
M2D | 0.0142
A4N | 0.0658
E10T | -0.212
C9L | -0.241
M2Q | 0.117
I3G | 0.186
I3Q | -0.00784
D12C | 0.26
L7F | -0.189
N6Y | 0.0214

Set 5 — technique: DHFR PCA, deep sequencing; medium: yeast; added: (+)-ABA 710 µM; relative to: wild-type fitted maximum; direction: higher = stronger binding
Target: ABI1, truncated, D143A, DHFR fusion (Arabidopsis thaliana)
Notes: methotrexate growth selection, single substitutions
Parent: PYL1, truncated, DHFR fusion (Arabidopsis thaliana); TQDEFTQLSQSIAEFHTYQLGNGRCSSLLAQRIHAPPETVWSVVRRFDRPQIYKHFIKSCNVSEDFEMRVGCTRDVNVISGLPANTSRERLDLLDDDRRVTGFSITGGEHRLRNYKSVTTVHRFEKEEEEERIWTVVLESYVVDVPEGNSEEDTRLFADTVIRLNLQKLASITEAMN
Change | relative binding score [%]
V78G | 9.15
N22F | 98.1
A170R | 103
E125Y | 114
G102H | 9.06
Q19K | 100
L156M | 106
L94E | 16
L82V | 97.2
I172L | 101
F157E | -8.58
D159Q | 83.7
A158F | 56.3
S87R | 19.6
H16D | 5.2
D95P | -1.34
N77A | 102
N165H | 64.9
L169R | -0.0564
Q31H | 94.9
P50W | -16
L91P | 1.15
I52W | 102

Some of these lines once more (set 4):
Change | normalised enrichment score
A4S | -0.208
L11Y | -0.238
M2D | 0.0142
A4N | 0.0658
E10T | -0.212
C9L | -0.241
M2Q | 0.117
I3G | 0.186
I3Q | -0.00784
D12C | 0.26
